Published values collected from several papers.
Numbered parts are unrelated; each lists some results of a single study.

Study 1
Target: RNA binding protein fox-1 homolog 2, RRM domain, GST-SBP tag (RBFOX2, Homo sapiens, UniProt O43251-10, residues 100-194)
Technique: RNA Bind-n-Seq
Molecule type: RNA
Matrix: in vitro
Concentration: 365 nM
Notes: natural RNA segment, single round, ends assumed
Reference: no-protein control
Direction: higher = stronger binding
All sequences stand within: GGGAGUUCUACAGUCCGACGAUC … UGGAAUUCUCGGGUGCCAA
Residues (chain): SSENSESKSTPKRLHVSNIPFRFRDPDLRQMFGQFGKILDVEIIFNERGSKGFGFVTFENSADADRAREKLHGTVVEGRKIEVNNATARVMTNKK
Sequence	RBNS enrichment (R)
AUUUCCCUAUAACCCUAUAAUUUUGUGAUGUCAUGUGCUGUACAGUUUUAAUGUGGUGAGCAGCCUAAGAACUUAAAGGUGUACGGUAUUUUGUUUAUAAAGAUGUUCAG	0.637
ACUCAUGCUGUCUUGGACUCACUGACCCAGCUGCAGGGUUUUGUUACCCUGCCAGUCCCCUGCCUCACUCCACCAUGAAGGUCUCUGCUUUCCUGUGACUUGAUUGGGAU	0.265
UCUCACCUUUUUAAAAAUUUCCAUACAACUUGAGAAUUAGGUAAGUUCCUUUGUAUACAAAUUUCAGCAGCUAGGAUAUGUCACCCUUCAGUACUACAAAGUACAGAAAU	1.24
UGACGACGUCCCCCUUGGGGACAUGUUGUUACCAGAAGAGGAAGUUUUGUUCUCUUUGUUGGUUGUUUUUCCUUAAUCUUUCUCCUUUCUAUCUGAUUUAAGCAAAAGAG	0.486
CCCAGGCCAGAAUAACAGAGCUUUCUUAGUUGGUGAAGACUUAAACAUCUGCCUGAGGUCAGGAGGCAAUUUGCCUGCCUUGUACAAAAGCUCAGGUGAAAGACUGAGAU	0.296

Study 2
Target: Fragile X messenger ribonucleoprotein 1, C-terminal low-complexity region (Fmr1, Mus musculus, UniProt P35922)
Technique: RNA Bind-n-Seq
Molecule type: RNA
Matrix: in vitro
Concentration: 200 nM
Notes: whole 134-nt RNA, ends assumed
Together with: 150 mM KCl
Reference: input library
Direction: higher = stronger binding
All sequences stand within: GGGAGUUCUACAGUCCGACGAUC … UGGAAUUCUCGGGUGUCAAGG
Sequence	log2 enrichment
GUCCUGUGCUACACAUCGUAUGUACCGAAUCAAACCCCCCCAAAUUUUUAAAUUUAAAAAAGUAUUAUGUUACGCCGUUCGGAUCUGCAC	0.37
UUCCUCAAGUCCUGUGCUACACAUCGUAUGUACCGAAUCGGGAGGAGGAGGAAAGUAUUAUGUUACGCCGUUCGGAUCUGCACUUCCAGC	-0.629
GUCCUGUGCUACACAUCGUAUGUACCGAAUCAAAUUUUUUUAAACCCAAACCCCCAAAAAAGUAUUAUGUUACGCCGUUCGGAUCUGCAC	-0.348
UGGAUUUUCAAGACACGAAUGCUCGGAGUCUGGCAGAAAGGAAGAGAGAAGAGGAGAAGCAGAAGCACUUGGAUAAAAUUUAUCAAGAAA	-0.457
UCAAGUCCUGUGCUACACAUCGUAUGUACCGAAUCGGCCCGGGCCCGGCCCGGGGAAAGUAUUAUGUUACGCCGUUCGGAUCUGCACUUC	-0.899
ACCAUGCAGGUGGGCAUCUUUGGGAAGUGGUGCAAGGGGGGGAUAGGGAGGGGGGUAACACUUUGGGAACAGGUGGUCCCAGGUCGUUUC	0.927

Study 3
Target: Interferon regulatory factor 3, full length, phosphomimetic (IRF3, Homo sapiens, UniProt Q14653, residues 1-427, S386D/S396D/S398D/S402D/T404D/S405D)
Technique: protein-binding microarray
Molecule type: double-stranded DNA, one strand shown
Matrix: in vitro
Concentration: 2540 nM top
Notes: 60-bp whole probe
Together with: salmon DNA 0.4 mg/ml
Reference: random background probes
Direction: higher = stronger binding
All sequences stand within: GCCTAGCAC … GTCTTGATTCGCTTGACGCTGCTG
Construct (chain): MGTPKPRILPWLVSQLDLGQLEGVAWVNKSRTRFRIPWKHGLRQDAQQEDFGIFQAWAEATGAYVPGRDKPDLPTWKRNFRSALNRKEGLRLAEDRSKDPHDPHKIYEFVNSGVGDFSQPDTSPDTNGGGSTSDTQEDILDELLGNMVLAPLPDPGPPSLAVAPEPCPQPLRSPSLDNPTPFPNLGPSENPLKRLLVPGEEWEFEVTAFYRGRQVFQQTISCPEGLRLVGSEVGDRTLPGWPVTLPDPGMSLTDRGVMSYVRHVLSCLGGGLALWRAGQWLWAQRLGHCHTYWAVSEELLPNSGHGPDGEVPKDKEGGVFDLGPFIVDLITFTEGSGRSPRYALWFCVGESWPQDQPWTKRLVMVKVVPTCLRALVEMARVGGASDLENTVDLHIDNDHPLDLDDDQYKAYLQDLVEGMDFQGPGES
Sequence	fitted relative affinity [z-score]
AGACAGTTGAGTTCTGTTGCAGTGCTA	-0.54
GACGGTATCCATCTCCTGACGTGCTAG	5.17
TTAGGTATCGACTTTCGCTTAGTGCTA	1.08
GACGATTTCATTCTCGAGACGTGCTAG	3.38
GACGGTTACCTACTGCTGACGTGCTAG	1.66
CTTACTTTATGTAGGAAGTCGTGCTAG	0.803

Other studies, line by line
Molecule	target	assay	system	conditions	how to read	measurement	result
PhoQ, residues 284 288 289 292 302 303 NLSRDF	PhoP, residues 12 14 15 18 19 AGCRL (Escherichia coli, UniProt P23836)	Sort-seq, refers to: YFP reporter	E. coli	PhoQ-PhoP variant library, together with: 10 µM Mg2+	reference: high Mg2+ state, higher = stronger signaling	fold induction	5.93

Excerpt of the above (study 2):
Sequence	log2 enrichment
UGGAUUUUCAAGACACGAAUGCUCGGAGUCUGGCAGAAAGGAAGAGAGAAGAGGAGAAGCAGAAGCACUUGGAUAAAAUUUAUCAAGAAA	-0.457
UUCCUCAAGUCCUGUGCUACACAUCGUAUGUACCGAAUCGGGAGGAGGAGGAAAGUAUUAUGUUACGCCGUUCGGAUCUGCACUUCCAGC	-0.629
